Measurements gathered from unrelated publications.
Protocols differ between the studies behind these lines. ± gives the spread as reported.
lecA: PA-I galactophilic lectin (lecA, Pseudomonas aeruginosa, UniProt Q05097)
UniProt Q05097, sequence (whole entry, looked up): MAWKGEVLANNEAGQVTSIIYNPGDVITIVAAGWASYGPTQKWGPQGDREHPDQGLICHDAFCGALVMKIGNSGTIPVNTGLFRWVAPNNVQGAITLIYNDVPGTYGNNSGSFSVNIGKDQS
Complement C3: Complement C3 (Homo sapiens, UniProt P01024)
UniProt P01024, sequence (whole entry, looked up): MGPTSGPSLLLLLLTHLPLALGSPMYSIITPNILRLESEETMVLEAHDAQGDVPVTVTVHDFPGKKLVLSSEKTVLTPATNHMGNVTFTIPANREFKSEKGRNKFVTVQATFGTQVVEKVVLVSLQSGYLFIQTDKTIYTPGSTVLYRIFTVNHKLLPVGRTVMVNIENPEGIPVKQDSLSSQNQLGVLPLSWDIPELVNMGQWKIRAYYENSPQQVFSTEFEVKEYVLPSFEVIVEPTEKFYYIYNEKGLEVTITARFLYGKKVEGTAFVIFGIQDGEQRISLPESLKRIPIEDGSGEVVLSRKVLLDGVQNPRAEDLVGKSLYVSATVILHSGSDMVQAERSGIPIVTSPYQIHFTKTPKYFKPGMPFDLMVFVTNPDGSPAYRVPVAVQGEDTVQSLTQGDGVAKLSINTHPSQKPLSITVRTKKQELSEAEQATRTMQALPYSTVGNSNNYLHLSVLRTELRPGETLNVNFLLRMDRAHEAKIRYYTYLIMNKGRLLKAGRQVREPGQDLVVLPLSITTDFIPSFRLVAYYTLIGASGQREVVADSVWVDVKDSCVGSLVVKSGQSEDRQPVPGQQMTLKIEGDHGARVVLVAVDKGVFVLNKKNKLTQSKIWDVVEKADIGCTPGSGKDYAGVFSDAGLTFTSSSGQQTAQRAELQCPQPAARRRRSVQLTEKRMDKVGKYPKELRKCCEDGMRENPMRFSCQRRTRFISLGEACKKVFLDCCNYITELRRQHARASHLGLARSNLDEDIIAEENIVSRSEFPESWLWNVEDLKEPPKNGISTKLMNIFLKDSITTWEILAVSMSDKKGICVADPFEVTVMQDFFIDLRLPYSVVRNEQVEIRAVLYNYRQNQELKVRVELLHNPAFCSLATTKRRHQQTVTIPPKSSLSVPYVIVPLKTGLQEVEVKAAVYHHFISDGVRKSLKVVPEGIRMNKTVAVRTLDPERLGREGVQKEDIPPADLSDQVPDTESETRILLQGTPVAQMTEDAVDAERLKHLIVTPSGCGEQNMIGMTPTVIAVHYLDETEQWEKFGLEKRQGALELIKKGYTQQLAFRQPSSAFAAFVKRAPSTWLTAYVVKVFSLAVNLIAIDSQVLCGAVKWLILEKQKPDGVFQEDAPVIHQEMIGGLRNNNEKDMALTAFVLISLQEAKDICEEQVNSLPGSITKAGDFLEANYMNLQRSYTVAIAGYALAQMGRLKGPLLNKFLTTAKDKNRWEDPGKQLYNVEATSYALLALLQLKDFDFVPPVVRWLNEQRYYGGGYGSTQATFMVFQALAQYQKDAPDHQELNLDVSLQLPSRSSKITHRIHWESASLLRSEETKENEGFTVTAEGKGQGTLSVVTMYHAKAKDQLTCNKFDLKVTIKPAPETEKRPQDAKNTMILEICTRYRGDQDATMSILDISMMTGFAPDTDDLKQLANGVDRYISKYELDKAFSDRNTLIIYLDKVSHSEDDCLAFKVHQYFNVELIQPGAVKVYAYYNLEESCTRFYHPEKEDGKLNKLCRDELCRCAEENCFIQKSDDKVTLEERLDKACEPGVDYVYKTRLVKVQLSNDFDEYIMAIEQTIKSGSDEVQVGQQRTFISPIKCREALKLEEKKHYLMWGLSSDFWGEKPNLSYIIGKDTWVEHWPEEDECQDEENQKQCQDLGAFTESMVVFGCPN
KEAP1 Kelch domain: Kelch-like ECH-associated protein 1, Kelch domain (KEAP1, Homo sapiens, UniProt Q14145)
UniProt Q14145, sequence (whole entry, looked up): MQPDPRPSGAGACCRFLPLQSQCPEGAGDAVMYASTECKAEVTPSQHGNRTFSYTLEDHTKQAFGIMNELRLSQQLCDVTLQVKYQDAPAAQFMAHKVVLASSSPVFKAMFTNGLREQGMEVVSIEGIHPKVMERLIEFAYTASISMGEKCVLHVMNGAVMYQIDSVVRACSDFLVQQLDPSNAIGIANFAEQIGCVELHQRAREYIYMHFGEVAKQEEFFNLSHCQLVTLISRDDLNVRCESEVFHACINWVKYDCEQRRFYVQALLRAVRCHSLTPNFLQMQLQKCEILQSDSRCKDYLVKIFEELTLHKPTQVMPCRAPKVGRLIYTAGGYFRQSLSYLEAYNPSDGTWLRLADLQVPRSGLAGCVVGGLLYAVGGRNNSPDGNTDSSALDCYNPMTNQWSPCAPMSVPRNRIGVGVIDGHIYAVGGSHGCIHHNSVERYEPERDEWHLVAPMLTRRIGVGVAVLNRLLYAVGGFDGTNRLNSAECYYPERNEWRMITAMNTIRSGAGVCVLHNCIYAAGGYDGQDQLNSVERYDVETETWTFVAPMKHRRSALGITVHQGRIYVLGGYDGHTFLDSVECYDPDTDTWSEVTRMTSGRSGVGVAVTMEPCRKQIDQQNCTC
UniProt O14786, sequence (whole entry, unmodified, looked up): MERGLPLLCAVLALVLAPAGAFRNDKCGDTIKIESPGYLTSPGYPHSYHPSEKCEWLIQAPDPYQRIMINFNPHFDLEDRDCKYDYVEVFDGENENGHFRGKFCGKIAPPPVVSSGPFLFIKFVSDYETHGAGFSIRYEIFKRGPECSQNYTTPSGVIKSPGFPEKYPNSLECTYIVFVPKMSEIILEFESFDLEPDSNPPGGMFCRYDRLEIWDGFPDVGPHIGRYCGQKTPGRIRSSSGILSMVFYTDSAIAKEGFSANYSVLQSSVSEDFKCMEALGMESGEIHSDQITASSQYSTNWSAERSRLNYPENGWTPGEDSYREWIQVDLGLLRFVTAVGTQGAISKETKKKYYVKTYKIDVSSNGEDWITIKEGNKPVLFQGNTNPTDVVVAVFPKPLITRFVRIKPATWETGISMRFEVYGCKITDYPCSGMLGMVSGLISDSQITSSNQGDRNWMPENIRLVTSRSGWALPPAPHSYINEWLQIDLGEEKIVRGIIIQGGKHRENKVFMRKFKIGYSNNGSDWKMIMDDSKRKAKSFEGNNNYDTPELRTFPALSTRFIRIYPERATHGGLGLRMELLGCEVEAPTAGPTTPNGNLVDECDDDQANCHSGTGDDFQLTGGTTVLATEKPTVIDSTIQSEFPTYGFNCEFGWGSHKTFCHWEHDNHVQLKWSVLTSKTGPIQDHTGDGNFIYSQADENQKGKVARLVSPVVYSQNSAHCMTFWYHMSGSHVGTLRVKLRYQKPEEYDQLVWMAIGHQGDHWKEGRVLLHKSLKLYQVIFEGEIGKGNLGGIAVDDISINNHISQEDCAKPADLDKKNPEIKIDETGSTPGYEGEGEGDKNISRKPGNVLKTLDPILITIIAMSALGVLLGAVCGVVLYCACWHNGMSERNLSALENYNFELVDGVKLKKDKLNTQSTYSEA
UniProt Q7LC44, sequence (whole entry, unmodified, looked up): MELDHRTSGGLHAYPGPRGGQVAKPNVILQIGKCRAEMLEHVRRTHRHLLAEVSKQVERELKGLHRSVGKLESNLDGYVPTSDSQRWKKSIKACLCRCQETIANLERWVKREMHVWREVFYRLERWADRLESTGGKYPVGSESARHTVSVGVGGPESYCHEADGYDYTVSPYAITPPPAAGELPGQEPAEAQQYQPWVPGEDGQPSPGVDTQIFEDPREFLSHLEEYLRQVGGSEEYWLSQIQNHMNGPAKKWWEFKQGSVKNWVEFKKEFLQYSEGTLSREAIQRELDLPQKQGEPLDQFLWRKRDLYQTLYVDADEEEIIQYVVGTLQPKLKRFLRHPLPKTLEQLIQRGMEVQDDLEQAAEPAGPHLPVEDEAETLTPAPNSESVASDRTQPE
UniProt Q06911, sequence (whole entry, unmodified, looked up): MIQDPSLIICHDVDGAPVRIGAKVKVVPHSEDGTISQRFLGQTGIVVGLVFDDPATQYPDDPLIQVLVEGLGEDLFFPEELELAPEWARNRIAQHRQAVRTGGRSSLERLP

The ΔH of `N=C(N)NCCC[C@H](NC(=O)[C@H](CCCNC(=N)N)NC(=O)[C@H](CC(N)=O)NC(=O)[C@H](CCCNC(=N)N)NC(=O)[C@@H]1CCCN1C(=O)[C@H](CCCCN)NC(=O)[C@H](CCCCN)NC(=O)[C@H](CCC(N)=O)NC(=O)[C@H](CC(=O)O)NC(=O)[C@@H](N)Cc1c[nH]c2ccccc12)C(=O)O` is reported as -18.5 kcal/mol (Neuropilin-1 (NRP1, Homo sapiens, UniProt O14786); binding, ITC; pH 7.4, 30 °C).
With `O=C(COCCc1ccccc1)N[C@@H](Cc1cn(CCNC(=O)c2ccc(S[C@@H]3O[C@H](CO)[C@H](O)[C@H](O)[C@H]3O)cc2)nn1)C(=O)NCCO` the ΔH was -9.8 ± 0.263 kcal/mol (lecA; binding, isothermal titration calorimetry; 25 °C).
For `CC[C@H](C)[C@H](NC(C)=O)C(=O)N[C@H]1CSSC[C@@H](C(=O)N[C@H](C(N)=O)[C@@H](C)O)NC(=O)[C@H](CCCNC(=N)N)NC(=O)[C@H](Cc2c[nH]cn2)NC(=O)[C@@H]2CCCN2C(=O)CNC(=O)[C@H](Cc2c[nH]c3ccccc23)NC(=O)[C@H](CC(=O)O)NC(=O)[C@H](CCC(N)=O)NC(=O)[C@H](Cc2cn(C)c3ccccc23)NC(=O)[C@H](C(C)C)NC1=O`, the ΔH was -15.3 kcal/mol (Complement C3; ITC; pH 7.4, 25 °C).
With `O=C(COCCCc1ccccc1)N[C@@H](Cc1cn(CCNC(=O)c2ccc(S[C@@H]3O[C@H](CO)[C@H](O)[C@H](O)[C@H]3O)cc2)nn1)C(=O)NCCO` the ΔH was -10.5 ± 0.621 kcal/mol (lecA; binding, isothermal titration calorimetry; 25 °C).
`CC[C@H](C)[C@H](NC(=O)CNC(C)=O)C(=O)N[C@@H](CCCNC(=N)N)C(=O)N[C@@H](CCC(=O)O)C(=O)N[C@@H](C)C(=O)N[C@H](C(=O)N[C@@H](CC(C)C)C(=O)N[C@@H](CCCNC(=N)N)C(=O)N[C@@H](C)C(=O)N[C@@H](Cc1c[nH]c2ccccc12)C(=O)N[C@@H](CCC(=O)O)C(=O)N[C@@H](CCCNC(=N)N)C(=O)N[C@@H](CCCNC(=N)N)C(=O)N[C@@H](Cc1ccc(O)cc1)C(=O)NCC(=O)N[C@@H](Cc1ccccc1)C(=O)N1CCC[C@H]1C(=O)N[C@@H](CCCNC(=N)N)C(=O)N1CCC[C@H]1C(=O)N[C@@H](CC(C)C)C(=O)N[C@@H](CCCNC(=N)N)C(=O)N[C@@H](CO)C(=O)N[C@@H](CCC(=O)O)C(N)=O)[C@@H](C)O` has a ΔH of -10.88 ± 0.07 kcal/mol (Antirepressor protein CarS (carS, Myxococcus xanthus, UniProt Q06911); ITC; pH 7.5, 30 °C).
`CC(=O)N[C@@H](CO)C(=O)N[C@@H](C)C(=O)N[C@@H](CCCCN)C(=O)N[C@@H](C)C(=O)N[C@@H](C)C(=O)N[C@@H](CC(=O)O)C(=O)N[C@@H](CC(=O)O)C(=O)N1CCC[C@H]1C(=O)N[C@@H](CCC(=O)O)C(=O)N[C@@H](CC(N)=O)C(=O)NCC(=O)N[C@@H](CCC(=O)O)C(=O)N[C@@H](CCCNC(=N)N)C(=O)N[C@@H](CCC(=O)O)C(=O)N[C@@H](CO)C(=O)N[C@@H](Cc1c[nH]cn1)C(=O)N[C@H](C(=O)N1CCC[C@H]1C(=O)N[C@H](C(=O)N[C@@H](CO)C(N)=O)C(C)C)[C@@H](C)O` gave a ΔH of -15.11 ± 0.08 kcal/mol (KEAP1 Kelch domain; isothermal titration calorimetry; Kelch domain; pH 7, 298.15 K).
For `CC[C@H](C)[C@H](NC(=O)[C@H](CCCNC(=N)N)NC(C)=O)C(=O)N1CCC[C@H]1C(=O)N[C@@H](COP(=O)(O)O)C(=O)N[C@@H](Cc1ccc(O)cc1)C(=O)N[C@@H](CCCNC(=N)N)C(=O)N[C@@H](Cc1ccc(O)cc1)C(=O)N[C@@H](CCCNC(=N)N)C(N)=O`, the ΔH was -66.5 ± 0.6 kcal/mol (Activity-regulated cytoskeleton-associated protein, residues 207–277 (ARC, Homo sapiens, UniProt Q7LC44); binding, isothermal titration calorimetry; pH 7.4, 25 °C).
With `OC[C@H]1O[C@@H](OCc2cn([C@@H]3O[C@H](CO)[C@@H](n4cc(-c5ccc(-c6cn([C@H]7[C@H](O)[C@@H](O)[C@H](n8cc(CO[C@@H]9O[C@H](CO)[C@H](O)[C@H](O)[C@H]9O)nn8)O[C@@H]7CO)nn6)cc5)nn4)[C@H](O)[C@H]3O)nn2)[C@H](O)[C@@H](O)[C@H]1O` the ΔH was -22.9 ± 1.9 kcal/mol (lecA; isothermal titration calorimetry; 25 °C).
With `O=C(COc1ccccc1)N[C@@H](Cc1cn(CCNC(=O)c2ccc(S[C@@H]3O[C@H](CO)[C@H](O)[C@H](O)[C@H]3O)cc2)nn1)C(=O)NCCO` the ΔH was -11 ± 0.837 kcal/mol (lecA; binding, isothermal titration calorimetry; 25 °C).
With `C#Cc1ccc(O[C@@H]2O[C@H](CO)[C@H](O)[C@H](O)[C@H]2O)cc1` the ΔH was -8.7 ± 1 kcal/mol (lecA; isothermal titration calorimetry; 25 °C).
For `CC[C@H](C)[C@H](NC(C)=O)C(=O)N[C@H]1CSSC[C@@H](C(=O)N[C@H](C(N)=O)[C@@H](C)O)NC(=O)[C@H](CCCNC(=N)N)NC(=O)[C@H](Cc2c[nH]cn2)NC(=O)[C@H](C)NC(=O)CNC(=O)[C@H](Cc2c[nH]c3ccccc23)NC(=O)[C@H](CC(=O)O)NC(=O)[C@H](CCC(N)=O)NC(=O)[C@H](Cc2ccc(O)cc2)NC(=O)[C@H](C(C)C)NC1=O`, the ΔH was -13.9 kcal/mol (Complement C3; ITC; pH 7.4, 25 °C).
With `OC[C@H]1O[C@@H](Oc2ccc(OCCc3cn([C@H]4[C@H](O)[C@@H](O)[C@H](c5cn([C@H]6[C@H](O)[C@@H](O)[C@H](n7cc(CCOc8ccc(O[C@@H]9O[C@H](CO)[C@H](O)[C@H](O)[C@H]9O)cc8)nn7)O[C@@H]6CO)nn5)O[C@@H]4CO)nn3)cc2)[C@H](O)[C@@H](O)[C@H]1O` the ΔH was -16.1 ± 0.9 kcal/mol (lecA; isothermal titration calorimetry; 25 °C).
For `CC[C@H](C)[C@H](NC(=O)[C@H](Cc1c[nH]cn1)NC(C)=O)C(=O)N[C@@H](CCCCN)C(=O)N[C@H](C(=O)N[C@@H](Cc1c[nH]cn1)C(=O)N[C@@H](CC(C)C)C(=O)N[C@@H](CC(=O)O)C(=O)N[C@@H](CCC(=O)O)C(=O)N[C@@H](CCC(=O)O)C(=O)N[C@H](C(=O)NCC(=O)N[C@@H](CCC(=O)O)C(=O)N[C@@H](CCCCN)C(=O)N[C@H](C(=O)N[C@@H](CO)C(=O)N[C@H](C(=O)N[C@H](C(=O)N[C@@H](CC(C)C)C(=O)N[C@@H](CC(=O)O)C(=O)N[C@H](C(N)=O)C(C)C)[C@@H](C)O)[C@@H](C)CC)[C@@H](C)O)[C@@H](C)O)[C@@H](C)O`, the ΔH was -19.29 ± 0.11 kcal/mol (KEAP1 Kelch domain; isothermal titration calorimetry; Kelch domain; pH 7, 298.15 K).
`O=C(COc1ccc(F)cc1)N[C@@H](Cc1cn(CCNC(=O)c2ccc(S[C@@H]3O[C@H](CO)[C@H](O)[C@H](O)[C@H]3O)cc2)nn1)C(=O)NCCO` has a ΔH of -10.4 ± 0.478 kcal/mol (lecA; binding, isothermal titration calorimetry; 25 °C).
With `OC[C@H]1O[C@@H](OCc2cn([C@@H]3O[C@H](CO)[C@@H](n4cc(CCCCc5cn([C@H]6[C@H](O)[C@@H](O)[C@H](n7cc(CO[C@@H]8O[C@H](CO)[C@H](O)[C@H](O)[C@H]8O)nn7)O[C@@H]6CO)nn5)nn4)[C@H](O)[C@H]3O)nn2)[C@H](O)[C@@H](O)[C@H]1O` the ΔH was -14.3 ± 0.2 kcal/mol (lecA; isothermal titration calorimetry; 25 °C).

Repeated from above:
With `O=C(COCCc1ccccc1)N[C@@H](Cc1cn(CCNC(=O)c2ccc(S[C@@H]3O[C@H](CO)[C@H](O)[C@H](O)[C@H]3O)cc2)nn1)C(=O)NCCO` the ΔH was -9.8 ± 0.263 kcal/mol (lecA; binding, isothermal titration calorimetry; 25 °C).
